Results pooled from the literature.
Each numbered part is a random draw from the data of one study; scales do not carry over between parts. Positions count from the first letter of the parent shown.

Series 1 — technique: DHFR PCA, deep sequencing; medium: yeast; added: (+)-ABA 0 µM; baseline: wild-type fitted maximum; reading: higher = stronger binding
Target: ABI1, truncated, D143A, DHFR fusion (Arabidopsis thaliana)
Setting: methotrexate growth selection, single substitutions
Starting sequence: PYL1, truncated, DHFR fusion (Arabidopsis thaliana); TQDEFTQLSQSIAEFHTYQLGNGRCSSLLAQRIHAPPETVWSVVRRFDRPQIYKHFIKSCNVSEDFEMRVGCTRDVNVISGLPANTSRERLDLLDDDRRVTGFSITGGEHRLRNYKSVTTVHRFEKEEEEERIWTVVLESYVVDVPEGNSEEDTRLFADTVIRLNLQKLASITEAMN; partner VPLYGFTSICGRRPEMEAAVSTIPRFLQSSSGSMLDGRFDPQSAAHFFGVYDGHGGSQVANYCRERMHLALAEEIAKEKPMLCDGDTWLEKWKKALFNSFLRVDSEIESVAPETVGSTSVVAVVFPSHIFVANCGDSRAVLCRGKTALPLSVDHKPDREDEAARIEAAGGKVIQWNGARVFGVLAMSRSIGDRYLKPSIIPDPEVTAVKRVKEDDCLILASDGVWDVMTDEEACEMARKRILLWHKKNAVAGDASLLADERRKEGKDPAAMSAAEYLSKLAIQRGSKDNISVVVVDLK
For `S87P`, “relative binding score” read 8.58%.
Under “relative binding score”, `A30I` is recorded as 7.79%.
Under “relative binding score”, `Q2P` is recorded as 60%.
`L169E`: “relative binding score” -2.51%.
Under “relative binding score”, `K168Q` is recorded as 12.4%.
`G23S` — result for “relative binding score”: 6.33%.
For `T39R`, “relative binding score” read 14.2%.
For `G21R`, “relative binding score” read 18.6%.
For `I12F`, “relative binding score” read 3.28%.
`G102E`: “relative binding score” -0.119%.
Under “relative binding score”, `S26A` is recorded as 13.6%.
For `I52H`, “relative binding score” read 8.52%.
`V145W`: “relative binding score” -6.67%.
`L166W`: “relative binding score” 6.63%.
`E4F`: “relative binding score” 13.8%.
Under “relative binding score”, `Y18L` is recorded as -0.225%.
For `W41E`, “relative binding score” read 1.74%.
`F56V`: “relative binding score” -3.99%.
`D153R` — result for “relative binding score”: 0.686%.

Series 2 — technique: protein-binding microarray; form: double-stranded DNA, one strand shown; medium: in vitro; concentration: not given; reading: higher = stronger binding
Target: Myc proto-oncogene protein, bHLH-zipper, MAX partner unstated (MYC, Homo sapiens, UniProt P01106, residues 368-449)
UniProt P01106, sequence (368-449, looked up): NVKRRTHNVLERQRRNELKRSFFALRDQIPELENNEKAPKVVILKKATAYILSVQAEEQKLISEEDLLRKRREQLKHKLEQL
Setting: k-mer, scored over probes, only values ≥0.25
The E-score of `CATGCCCC` is reported as 0.345.
The E-score of `CGCGTGCC` is reported as 0.45.
`AGGACACG` gave an E-score of 0.266.
`ACACACAT` has an E-score of 0.338.
The E-score of `CCGTGCGC` is reported as 0.286.
`AAGACACG` has an E-score of 0.336.
The E-score of `CATACCAC` is reported as 0.269.
For `AGAGCACA`, the E-score was 0.275.
`CCACATGA` gave an E-score of 0.422.
For `ACACGCAG`, the E-score was 0.306.
For `GTGGTCCA`, the E-score was 0.306.
With `ATGTGTCA` the E-score was 0.344.
`CCACGCAC` gave an E-score of 0.417.

Series 3 — target: human cyclin D1; read-out: peptide binding; technique: yeast competitive growth sequencing; form: peptide; organism: Saccharomyces cerevisiae; strain: cyclin D1-Cln2 fusion; concentration: concentration not given; setting: peptide tiling library; baseline: Cln2 fusion control; reading: direction not given
For `RKLDLEGIGR`, “binding enrichment score” read 0.618.
Under “binding enrichment score”, `VLLKRLQDVVSERANH` is recorded as 3.95.
`PHKTFRKLRLFDTPHT` — result for “binding enrichment score”: -0.928.
`KRCATPVIIDEILPSK`: “binding enrichment score” 1.47.
`NCKKRRALDFLSRLPL` — result for “binding enrichment score”: -0.29.
Under “binding enrichment score”, `PPKPLKKLRFDIEGSD` is recorded as -0.8.
`ALLRRLQDVANDRGSH` — result for “binding enrichment score”: 4.21.
`EPKTLFLGAGDFQF`: “binding enrichment score” 1.59.
Under “binding enrichment score”, `QDYERRLLRQIVIQNE` is recorded as -0.517.
For `PKNAKRNLSSEFAN`, “binding enrichment score” read 0.586.
Under “binding enrichment score”, `TSSAQRRLEIPSGGAD` is recorded as -0.431.
For `SDSTVTKLDFDLEP`, “binding enrichment score” read 0.591.
`ARKRLELGNLGNPQ`: “binding enrichment score” -0.64.
`IPDRSTKPVVFSPT`: “binding enrichment score” 1.21.
`LFVPQRKLEVSTEDVH` — result for “binding enrichment score”: -0.384.
Under “binding enrichment score”, `GPVKLEFDVSDGAT` is recorded as 0.136.

Single results of other studies
For `PhoQ, residues 284 288 289 292 302 303 TTSMTC`, the fold induction was 12.8 (PhoP, residues 12 14 15 18 19 LHHSG (Escherichia coli, UniProt P23836); Sort-seq, refers to: YFP reporter; E. coli; PhoQ-PhoP variant library, added: 10 µM Mg2+; baseline: high Mg2+ state, higher = stronger signaling).

Excerpt of the above (series 2):
`ACACACAT` has an E-score of 0.338.
The E-score of `CCGTGCGC` is reported as 0.286.
